Published values gathered from unrelated publications.
Lines come from different studies, so protocols differ.

Structure (SMILES)	species	sample	route	dose	setting	half-life
CN1CCN(c2ccc(Nc3ncc(Cl)c(Nc4ccccc4P(C)(C)=O)n3)cc2Br)CC1	male Sprague-Dawley rat	plasma	oral	25 mg/kg		15.3 h
CSCOC1C(=O)C2(C)C(OCSC)CC3OCC3(OC(C)=O)C2C(OC(=O)c2ccccc2)C2(O)CC(OC(=O)C(O)C(C=C(C)C)NC(=O)OC(C)(C)C)C(C)=C1C2(C)C (centres unmarked)	male Sprague-Dawley rat	plasma	intravenous	1 mg/kg		8.1 h
CC1(C)CNC(=O)c2ccccc21	rat	plasma	oral	5 mg/kg	single dose	1.3 h
Nc1nc(Cl)nc2c1ncn2Cc1cc(OCC(F)F)cc(OC(F)F)c1	Sprague-Dawley rat	plasma	oral	5 mg/kg		7.92 h
CCOC(=O)c1cc2c(N)c(C(=O)OC)sc2nc1C	male Sprague-Dawley rat	plasma	subcutaneous	100 mg/kg		1.38 h
Cn1cc(-c2cc(N3CCCS3(=O)=O)ccc2N[C@H]2CC[C@H](C)CC2)c2cc[nH]c2c1=O	Sprague-Dawley rat	plasma	oral	3 mg/kg		2.06 h
C[Si](C)(C)C[C@H](CN)CC(=O)O	male Sprague-Dawley rat	plasma	oral	100 mg/kg	single dose	2.58 h
CNC(=O)N[C@]1(C)CCC[C@@]2(C)C3CC[C@@]4(C)C[C@]3(CCC21)CC4=O (single isomer, unassigned)	male Sprague-Dawley rat	plasma	intravenous	2 mg/kg		0.591 h
CC(C)(C)C(=O)Nc1ccc2[nH]c(CN3CCC(N(CCCN4CCOCC4)CC4OC(n5cnc6c(N)ncnc65)C(O)C4O)CC3)nc2c1 (centres unmarked)	male Sprague-Dawley rat	plasma	intravenous	20 mg/kg		1.62 h
CC12CC3CC(C)(C1)CC(NC(=O)Nc1ccc(C(=O)N4CCCC(C(N)=O)C4)cc1)(C3)C2 (centres unmarked)	Sprague-Dawley rat	plasma	intravenous	10 mg/kg		2.66 h
COc1cc2ncnc(Oc3ccc(Nc4nccc5[nH]cc(-c6ccc(F)cc6)c(=O)c45)cc3F)c2cc1OC	male Sprague-Dawley rat	plasma	oral	10 mg/kg		26.7 h
Cc1cc(N)nc(CC2CNCC2OCCNCC(F)(F)c2cccc(F)c2)c1 (centres unmarked)	rat	plasma	oral	5 mg/kg		3.7 h
CC12CC3CC(C)(C1)CC(NC(=O)Nc1ccc(C(=O)N4CCC[C@H](C(N)=O)C4)cc1F)(C3)C2	Sprague-Dawley rat	plasma	oral	50 mg/kg		5.18 h
Cc1ccc(OCC(=O)N(Cc2cccs2)c2ccn[nH]2)cc1	female Sprague-Dawley rat	plasma	oral	100 mg/kg	single dose	2.91 h
COC(=O)c1ccc2c(c1)NC(=O)/C2=C(\Nc1ccc2c(c1)CCN2C(=O)CN1CCOCC1)c1ccccc1	Sprague-Dawley rat	plasma	intravenous	2 mg/kg		1.3 h
Cc1cccc(Cn2ncc3c4cc(F)c(CN(C)C)cc4n(C)c3c2=O)n1	rat	plasma	intravenous	5 mg/kg		0.8 h

Structure (SMILES)	species	sample	route	dose	setting	half-life
CC(C)C[C@H](NC(=O)CNC(=O)[C@H](Cc1ccccc1)NC(=O)[C@H](CO)NC(=O)[C@H](CC(N)=O)NC(=O)[C@H](Cc1c[nH]c2ccccc12)NC(=O)[C@H](CC(N)=O)NC(=O)[C@@H](N)Cc1ccc(O)cc1)C(=O)N[C@@H](CCCNC(=N)N)C(=O)N[C@@H](Cc1ccccc1)C(N)=O	rat	plasma	intravenous	1 mg/kg		< 0.0167 h
N#Cc1cnc2cc(OCC3CCNCC3)c(F)cc2c1Nc1cc(F)c(OCc2cccc(Cl)n2)cc1Cl	male Sprague-Dawley rat	plasma	oral	30 mg/kg		6.7 h
COc1ccc2c(c1OCc1ccccc1)C[C@@H](C(=O)O)N(c1nc3ccc(F)cc3o1)C2	male Sprague-Dawley rat	plasma	intravenous	1 mg/kg		3.5 h
CCCN(c1ccc(C(=O)NCCC(=O)O)cc1)S(=O)(=O)c1cc(C)c(-c2ccc(C(C)(C)C)cc2)c(C)c1	rat	plasma	intravenous	2 mg/kg		1.5 h
C[Si]1(C)CNC(=O)c2ccccc21	rat	plasma	intravenous	1 mg/kg	single dose	1.9 h
C[Si]1(C[C@@H](CN)CC(=O)O)CCCC1	male Sprague-Dawley rat	plasma	oral	100 mg/kg	single dose	2.62 h
NC(COc1ccccc1C(F)(F)F)c1ccccc1 (centres unmarked)	male Sprague-Dawley rat	serum	intravenous	5 mg/kg		3.2 h
N=C(N)NCCC[C@H](NC(=O)[C@@H]1CCCN1C(=O)[C@H](Cc1ccccc1)NC(=O)[C@@H]1CCCN1C(=O)[C@H](Cc1c[nH]cn1)NC(=O)[C@@H](N)Cc1ccccc1)C(=O)O	male Sprague-Dawley rat	plasma	intravenous	10 mg/kg	single dose	0.113 h
O=C(N[C@@H](CC1CCCCC1)C(=O)N[C@@H](C[C@H]1CCNC1=O)C(=O)C(=O)NC1CC1)OCc1cccc(Cl)c1	female Sprague-Dawley rat	plasma	intravenous	10 mg/kg		7.52 h
COCCCN1CCc2c(Cc3ccc(Cl)cc3)[nH]c3c(OC(F)F)ccc(c23)C1=O	male Sprague-Dawley rat	blood	intravenous	2.5 mg/kg		1.99 h
COc1ccc(S(=O)(=O)N2CCc3ccccc3C2)cc1N1CCN(C(=O)c2ccc(F)cc2C(F)(F)F)CC1	rat	plasma	intravenous	10 mg/kg	single dose	0.72 h
COc1ccc(COc2c(OC)ccc3c2C[C@@H](C(=O)O)N(c2nc4ccc(F)cc4o2)C3)cn1	male Sprague-Dawley rat	plasma	intravenous	1 mg/kg		2.3 h
Cc1cc(/C=C/C#N)cc(C)c1Oc1nc(NC2CCN(Cc3ccc(P(C)(C)=O)cc3)CC2)nc2ccsc12	male Sprague-Dawley rat	plasma	oral	10 mg/kg		1.32 h
Cn1cc(-c2cc(N3CCCCS3(=O)=O)ccc2N[C@H]2CC[C@H](C)CC2)c2cc[nH]c2c1=O (stereo in doubt)	Sprague-Dawley rat	plasma	intravenous	1 mg/kg		1.06 h
O=c1c2cc(Cl)ccc2sc2c(NCc3ccccc3)nc3ccccc3c12	male Sprague-Dawley rat	plasma	intravenous	3 mg/kg	single dose	4.51 h
CCNC(=O)[C@@H]1CCCN1C(=O)[C@H](CCCNC(=N)N)NC(=O)[C@H](CC(C)C)NC(=O)[C@@H](CC(C)C)NC(=O)[C@H](Cc1ccc(O)cc1)NC(=O)[C@H](CO)NC(=O)[C@H](Cc1c[nH]c2ccccc12)NC(=O)[C@H](Cc1c[nH]cn1)NC(=O)[C@@H]1CCC(=O)N1	male Sprague-Dawley rat	plasma	subcutaneous	12.5 mg/kg	single dose	18.4 h

Excerpt of the above:
Structure (SMILES)	species	sample	route	dose	setting	half-life
COc1ccc2c(c1OCc1ccccc1)C[C@@H](C(=O)O)N(c1nc3ccc(F)cc3o1)C2	male Sprague-Dawley rat	plasma	intravenous	1 mg/kg		3.5 h
CCCN(c1ccc(C(=O)NCCC(=O)O)cc1)S(=O)(=O)c1cc(C)c(-c2ccc(C(C)(C)C)cc2)c(C)c1	rat	plasma	intravenous	2 mg/kg		1.5 h
C[Si]1(C)CNC(=O)c2ccccc21	rat	plasma	intravenous	1 mg/kg	single dose	1.9 h
C[Si]1(C[C@@H](CN)CC(=O)O)CCCC1	male Sprague-Dawley rat	plasma	oral	100 mg/kg	single dose	2.62 h
